Published values of several laboratories.
Lines come from different studies, so protocols differ. Numbers after ± are the reported error.
B1: enzyme E416A (Streptomyces platensis, UniProt A0A0A0V031); chain MQHTTIGDVLREHRRSHPGRTALVDGPVRLTWPELDDRVNRLAGSLAASGIGRGDRIMWLGQNSFRVYELIAAAGKLGAMVCVGYWRWAPPEMEFALRDFDPHLVVWQHQEIHETVARTREALGSDDTARWLRHDSAPQDPDGYEAFLAAGGLADPDLDIDPDSPVLVLYTAAMSGRQCGSLLSHTNLIAMATAAAWLGDIDHTTAFLNSGPMFHIGNHQFWGMPTLLMAGKNVIVRRVVAEEVRDLLVAEECTHAFLMPPTVAEIVRLNRDTGHDLSRLRATVAPHLWEGMATTDTSRFTRSGAAAGRGYGQTELSGFAVTAAYGGPAAGNAGRPGPGLTVRVLDTAGRECAVGEAGEICARGTVVHRGYWNRDEVNAHRFRSGWWHTTDLGRREPDGSLTFLGTTTRMLKSAAANIFPAEVENCIEQHPAVREAAVIGVPNTRWAQDVKAVVVLEPDAGVSEQEIIDHCRPRIASYKKPKSVAFAAALPRTVSGARDYDALDKEYGGGGYPGAATLGPGR
B2: enzyme A172S/A173G/A497K/C179K/M174T/Q178P (Streptomyces platensis, UniProt A0A0A0V031); chain MQHTTIGDVLREHRRSHPGRTALVDGPVRLTWPELDDRVNRLAGSLAASGIGRGDRIMWLGQNSFRVYELIAAAGKLGAMVCVGYWRWAPPEMEFALRDFDPHLVVWQHQEIHETVARTREALGSDDTARWLRHDSAPQDPDGYEAFLAAGGLADPDLDIDPDSPVLVLYTSGTSGRPKGSLLSHTNLIAMATAAAWLGDIDHTTAFLNSGPMFHIGNHQFWGMPTLLMAGKNVIVRRVVAEEVRDLLVAEECTHAFLMPPTVAEIVRLNRDTGHDLSRLRATVAPHLWEGMATTDTSRFTRSGAAAGRGYGQTELSGFAVTAAYGGPAAGNAGRPGPGLTVRVLDTAGRECAVGEAGEICARGTVVHRGYWNRDEVNAHRFRSGWWHTTDLGRREPDGSLTFLGTTTRMLKSAAENIFPAEVENCIEQHPAVREAAVIGVPNTRWAQDVKAVVVLEPDAGVSEQEIIDHCRPRIASYKKPKSVAFAAALPRTVSGKRDYDALDKEYGGGGYPGAATLGPGR
Sequence of UniProt Q50EL0 (whole entry, looked up): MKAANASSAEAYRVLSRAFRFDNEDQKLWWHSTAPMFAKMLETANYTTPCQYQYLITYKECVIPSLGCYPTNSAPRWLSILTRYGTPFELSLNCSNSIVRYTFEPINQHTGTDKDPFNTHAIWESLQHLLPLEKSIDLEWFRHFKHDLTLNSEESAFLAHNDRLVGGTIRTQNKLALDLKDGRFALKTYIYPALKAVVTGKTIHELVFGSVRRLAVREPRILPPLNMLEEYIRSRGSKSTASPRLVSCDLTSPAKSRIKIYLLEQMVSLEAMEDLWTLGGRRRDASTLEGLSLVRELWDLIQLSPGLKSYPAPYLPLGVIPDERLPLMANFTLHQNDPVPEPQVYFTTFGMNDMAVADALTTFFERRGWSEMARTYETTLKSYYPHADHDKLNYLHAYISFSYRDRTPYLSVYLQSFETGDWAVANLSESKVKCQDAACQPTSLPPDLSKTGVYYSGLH
Sequence of UniProt P21729 (whole entry, looked up): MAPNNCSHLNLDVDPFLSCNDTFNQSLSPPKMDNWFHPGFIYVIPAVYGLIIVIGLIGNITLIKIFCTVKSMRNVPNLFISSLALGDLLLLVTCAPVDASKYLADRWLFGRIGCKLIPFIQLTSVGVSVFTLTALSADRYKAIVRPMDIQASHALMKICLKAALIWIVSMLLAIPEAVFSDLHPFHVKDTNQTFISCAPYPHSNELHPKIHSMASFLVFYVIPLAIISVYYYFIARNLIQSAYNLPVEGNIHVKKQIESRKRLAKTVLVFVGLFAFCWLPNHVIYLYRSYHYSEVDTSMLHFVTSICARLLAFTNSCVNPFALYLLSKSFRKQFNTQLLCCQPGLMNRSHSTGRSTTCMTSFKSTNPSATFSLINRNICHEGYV

C=Cc1c(C)c2cc3nc(c4c5[nH]c(cc6nc(cc1[nH]2)C(C)=C6CC)c(C)c5C(=O)C4)[C@@H](CCC(=O)NCC(=O)N1CCC[C@H]1C(=O)N[C@@H](CC(C)C)C(=O)NCC(=O)N[C@@H](Cc1ccccc1)C(=O)N[C@@H](CCCNC(=N)N)C(=O)N[C@H](C(=O)NCC(=O)N[C@@H](CCCCN)C(N)=O)C(C)C)[C@@H]3C
mean fluorescence intensity (OA patient chondrocytes; flow cytometry; 1 µM, 1 h; baseline: untreated): 12 ± 2 fold

CCCC[C@H](NC(=O)CNC(=O)CNC(=O)c1ccc(NN)nc1)C(=O)N[C@H]1CC(=O)NCCCC[C@@H](C(N)=O)NC(=O)[C@H](Cc2c[nH]c3ccccc23)NC(=O)[C@H](CCCNC(=N)N)NC(=O)[C@@H](Cc2ccccc2)NC(=O)[C@H](Cc2c[nH]cn2)NC1=O [technetium-99m labelled]
uptake (C57 mouse, B16/F1 melanoma, stomach; 2 h, with: L-lysine 12 mg): 0.63 ± 0.44 %ID/g

CCCNC(=O)[C@H](CC(C)C)NC(=O)[C@H](Cc1c[nH]cn1)NC(=O)CNC(=O)[C@@H](NC(=O)[C@H](C)NC(=O)[C@H](Cc1c[nH]c2ccccc12)NC(=O)[C@H](CCC(N)=O)NC(=O)[C@@H](Cc1ccccc1)NC(=O)CCCCCNC(=O)CN1CCN(CC(=O)O)CCN(CC(=O)O)CCN(CC(=O)O)CC1)C(C)C [indium-111 labelled]
tissue uptake (Gastrin-releasing peptide receptor (Mus musculus, UniProt P21729); CF-1 mice, small intestine; intravenous, dose not given, 1 h, with: bombesin 100 µg (blocking)): 0.69 ± 0.11 %ID/g

N=C(N)NCCC[C@@H]1NC(=O)[C@H](CCCCNC(=O)CCOCCOCCOCCOCCNC(=O)CC[C@H](NC(=O)CCOCCOCCOCCOCCNC(=O)CC[C@H](NC(=O)CN2CCN(CC(=O)O)CCN(CC(=O)O)CCN(CC(=O)O)CC2)C(=O)NCCOCCOCCOCCOCCC(=O)N[C@@H](CCC(=O)NCCOCCOCCOCCOCCC(=O)NCCCC[C@@H]2NC(=O)[C@@H](Cc3ccccc3)NC(=O)[C@H](CC(=O)O)NC(=O)CNC(=O)[C@H](CCCNC(=N)N)NC2=O)C(=O)NCCOCCOCCOCCOCCC(=O)NCCCC[C@@H]2NC(=O)[C@@H](Cc3ccccc3)NC(=O)[C@H](CC(=O)O)NC(=O)CNC(=O)[C@H](CCCNC(=N)N)NC2=O)C(=O)NCCOCCOCCOCCOCCC(=O)NCCCC[C@@H]2NC(=O)[C@@H](Cc3ccccc3)NC(=O)[C@H](CC(=O)O)NC(=O)CNC(=O)[C@H](CCCNC(=N)N)NC2=O)NC(=O)[C@@H](Cc2ccccc2)NC(=O)[C@H](CC(=O)O)NC(=O)CNC1=O [indium-111 labelled]
tissue uptake (female athymic nude mice, eyes; intravenous, 3 µCi, 1 h, U-87 MG glioma xenograft): 1.4 %ID/g

B1 (enzyme E416A)
kcat/Km (C[C@@]12CCC[C@@](C)(C(=O)OP(=O)(O)OC[C@H]3O[C@@H](n4cnc5c(N)ncnc54)[C@H](O)[C@@H]3O)[C@H]1C[C@@H](O)[C@]13C[C@H]4C[C@H](O[C@@]4(C)C1)[C@@H]23; steady-state kinetics; pH 7.8, 25 °C): 500000 M⁻¹ s⁻¹

dmaW (Aspergillus fumigatus, UniProt Q50EL0)
kcat (CC/C(C)=C/COP(=O)(O)OP(=O)(O)O; steady-state kinetics; pH 7.5, 35 °C): 0.165 ± 0.00667 s⁻¹

C[C@H]1COc2c(N3CCN(C)CC3)c(F)cc3c(=O)c(C(=O)N[C@@H](CCCNC(=N)N)C(=O)N[C@@H](Cc4ccc(-c5ccccc5)cc4)C(=O)N[C@@H](CCCNC(=N)N)C(=O)N[C@@H](Cc4ccc(-c5ccccc5)cc4)C(=O)N[C@@H](CCCNC(=N)N)C(N)=O)cn1c23
hemolysis (human erythrocytes; 50 µM, 1 h, 37 °C; baseline: Triton X-100): 1.27 ± 0.014%

N=C(N)NCCC[C@@H]1NC(=O)[C@H](CCCCNC(=O)CC[C@H](NC(=O)CCOCCOCCOCCOCCNC(=O)CN2CCN(CC(=O)O)CCN(CC(=O)O)CCN(CC(=O)O)CC2)C(=O)NCCCC[C@@H]2NC(=O)[C@@H](Cc3ccccc3)NC(=O)[C@H](CC(=O)O)NC(=O)CNC(=O)[C@H](CCCNC(=N)N)NC2=O)NC(=O)[C@@H](Cc2ccccc2)NC(=O)[C@H](CC(=O)O)NC(=O)CNC1=O [indium-111 labelled]
tissue uptake (athymic nude mice, female, U-87 MG glioma xenograft, spleen; intravenous, 3 µCi, 4 h): 1.75 ± 0.27 %ID/g

B2
kcat/Km (C[C@@]12CCC[C@@](C)(C(=O)OP(=O)(O)OC[C@H]3O[C@@H](n4cnc5c(N)ncnc54)[C@H](O)[C@@H]3O)[C@H]1C[C@@H](O)[C@]13C[C@H]4C[C@H](O[C@@]4(C)C1)[C@@H]23; steady-state kinetics; pH 7.8, 25 °C): 2e+07 M⁻¹ s⁻¹

Excerpt of the above:
CCCNC(=O)[C@H](CC(C)C)NC(=O)[C@H](Cc1c[nH]cn1)NC(=O)CNC(=O)[C@@H](NC(=O)[C@H](C)NC(=O)[C@H](Cc1c[nH]c2ccccc12)NC(=O)[C@H](CCC(N)=O)NC(=O)[C@@H](Cc1ccccc1)NC(=O)CCCCCNC(=O)CN1CCN(CC(=O)O)CCN(CC(=O)O)CCN(CC(=O)O)CC1)C(C)C [indium-111 labelled]
tissue uptake (Gastrin-releasing peptide receptor (Mus musculus, UniProt P21729); CF-1 mice, small intestine; intravenous, dose not given, 1 h, with: bombesin 100 µg (blocking)): 0.69 ± 0.11 %ID/g
